Experimental data of several laboratories.
Lines come from different studies, so protocols differ. ± gives the spread as reported.
Sequence of UniProt Q71U36 (whole entry, looked up): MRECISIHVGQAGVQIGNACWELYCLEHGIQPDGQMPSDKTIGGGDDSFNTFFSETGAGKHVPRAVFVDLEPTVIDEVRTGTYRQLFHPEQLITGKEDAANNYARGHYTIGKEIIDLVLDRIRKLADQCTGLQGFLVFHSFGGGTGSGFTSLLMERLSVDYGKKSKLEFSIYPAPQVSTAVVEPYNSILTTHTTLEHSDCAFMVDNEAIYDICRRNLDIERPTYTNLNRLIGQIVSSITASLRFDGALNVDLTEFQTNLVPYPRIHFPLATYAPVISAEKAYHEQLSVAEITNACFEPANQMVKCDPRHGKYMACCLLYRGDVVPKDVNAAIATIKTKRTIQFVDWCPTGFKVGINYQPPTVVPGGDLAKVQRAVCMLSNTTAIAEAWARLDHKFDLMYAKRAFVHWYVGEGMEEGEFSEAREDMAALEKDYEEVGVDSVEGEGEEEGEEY
Sequence of UniProt P50406 (whole entry, looked up): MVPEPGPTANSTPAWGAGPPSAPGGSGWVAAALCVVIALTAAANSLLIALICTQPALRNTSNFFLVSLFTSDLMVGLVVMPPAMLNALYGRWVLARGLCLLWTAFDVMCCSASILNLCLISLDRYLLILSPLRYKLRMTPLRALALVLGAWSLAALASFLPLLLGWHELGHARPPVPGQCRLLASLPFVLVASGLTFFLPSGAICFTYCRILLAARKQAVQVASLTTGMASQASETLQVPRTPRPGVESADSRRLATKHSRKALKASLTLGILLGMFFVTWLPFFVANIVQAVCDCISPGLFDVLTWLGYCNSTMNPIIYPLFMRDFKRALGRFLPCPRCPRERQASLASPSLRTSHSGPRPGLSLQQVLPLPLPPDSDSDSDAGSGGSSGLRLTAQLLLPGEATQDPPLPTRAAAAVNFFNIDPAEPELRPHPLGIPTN

CO[C@H]1C[C@@H]2CC[C@@H](C)[C@@](O)(O2)C(=O)C(=O)N2CCCC[C@H]2C(=O)O[C@H]([C@H](C)C[C@@H]2CC[C@@H](OC(=O)NCCOCCOCCOCCOCCOCCOCCOCCOCCC(=O)N3CCc4cc(Cn5nc(-c6ccc7oc(N)nc7c6)c6c(N)ncnc65)ccc4C3)[C@H](OC)C2)C[C@@H](O)[C@H](C)/C=C(\C)[C@@H](O)[C@@H](OC)C(=O)[C@H](C)C[C@H](C)/C=C/C=C/C=C/1C — diarrhoea incidence (patients with advanced solid tumours; intravenous, 6 mg weekly, grade 3 or higher): 0%
C[C@H]1CN(c2n[nH]c3nc(N[C@H]4CC[C@H](NS(=O)(=O)CCC(F)(F)F)CC4)ncc23)CCO1 — remaining binding (Tubulin alpha-1A chain (Homo sapiens, UniProt Q71U36); Kinobeads competition, item: TUBA1A; 20 µM, unit not given; reference: vehicle): 1.09
Cc1c(C(=O)O)ccc2c3n(nc12)[C@@H]1[C@H](C3)N(CC2CC2)[C@@]2(C(=O)Nc3cc(Cl)ccc32)[C@H]1c1cccc(Cl)c1F — concentration (athymic nude mice, normal brain; oral, 2 mg/kg, 24 h): 6 ± 7 nM
C/C(=N\C#N)N(C)Cc1ccc(Cl)nc1 — concentration (soil; 56 days, nominal 0.37): 0.013 mg/kg dry soil
CN(C(=O)n1cnc(-c2ccc[n+]([O-])c2)c1)C1CCCCC1 — concentration (Wistar rat, medulla oblongata; oral, 10 mg/kg, 4 h, single dose): 114 ± 35.8 ng/g
O=C(Nc1cnccc1Cl)N1CCN(Cc2ccc3c(c2)OC(F)(F)O3)CC1 — concentration (culture medium without cells; 100 nM, 1 h): 92.9 ± 2.1 nM
O=C(Nc1cnccc1Cl)N1CCN(Cc2ccc3c(c2)OC(F)(F)O3)CC1 — concentration (cell-free medium; 100 nM, 3 h): 88 ± 4.5 nM
COc1cc(Nc2ncc(F)c(Nc3ccc4c(n3)NC(=O)C(C)(C)O4)n2)cc(OC)c1OC — IC50 (5-hydroxytryptamine receptor 6 (HTR6, Homo sapiens, UniProt P50406)): > 10 µM
CN(C(=O)n1cnc(-c2ccc[n+]([O-])c2)c1)C1CCCCC1 — concentration (culture medium without cells; 100 nM, 0 h): 90 ± 5 nM
CN1CCN(S(=O)(=O)c2cc([N+](=O)[O-])ccc2N(CCOS(C)(=O)=O)CCOS(C)(=O)=O)CC1 — concentration (NSG mice female, plasma; intraperitoneal, 5 mg/kg, 0.25 h): 1550 nM
O=C(Nc1cccnn1)N1CCC(=Cc2cccc(Oc3ccc(C(F)(F)F)cn3)c2)CC1 — concentration (culture medium without cells; 100 nM, 0 h): 60.7 ± 3.7 nM
COc1cc2c(Oc3ccc4[nH]c(C)cc4c3F)ccnc2cc1OCC1(N)CC1 — grade 1 or 2 sinus tachycardia (paediatric recurrent refractory sarcoma; concentration not given, whole group): 11.8%
N#C/N=C1\SCCN1Cc1ccc(Cl)nc1 — concentration (soil; 0 days, nominal 0.12): 0.06 mg/kg dry soil

A few entries again:
C/C(=N\C#N)N(C)Cc1ccc(Cl)nc1 — concentration (soil; 56 days, nominal 0.37): 0.013 mg/kg dry soil
CN(C(=O)n1cnc(-c2ccc[n+]([O-])c2)c1)C1CCCCC1 — concentration (Wistar rat, medulla oblongata; oral, 10 mg/kg, 4 h, single dose): 114 ± 35.8 ng/g
